Measurements gathered from unrelated publications.
Each numbered part is a random draw from the data of one study; scales do not carry over between parts.
Sequence of UniProt Q9Y243 (whole entry, looked up): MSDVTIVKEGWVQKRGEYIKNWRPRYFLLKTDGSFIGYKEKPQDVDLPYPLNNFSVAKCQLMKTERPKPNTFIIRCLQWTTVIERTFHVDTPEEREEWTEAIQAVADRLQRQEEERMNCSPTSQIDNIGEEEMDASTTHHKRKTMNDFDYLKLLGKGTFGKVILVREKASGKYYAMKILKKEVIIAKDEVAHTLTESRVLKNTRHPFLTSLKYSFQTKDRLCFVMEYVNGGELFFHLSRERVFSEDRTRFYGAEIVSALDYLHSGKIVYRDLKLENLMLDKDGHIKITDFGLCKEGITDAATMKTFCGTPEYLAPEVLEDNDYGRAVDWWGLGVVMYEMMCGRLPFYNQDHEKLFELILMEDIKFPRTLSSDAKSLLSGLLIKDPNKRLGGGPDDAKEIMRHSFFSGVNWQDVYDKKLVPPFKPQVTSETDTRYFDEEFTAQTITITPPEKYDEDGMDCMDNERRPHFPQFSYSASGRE

Series 1 — technique: RNA Bind-n-Seq; form: RNA; sample: in vitro; concentration: 365 nM; relative to: no-protein control; direction: higher = stronger binding
Target: RNA binding protein fox-1 homolog 2, RRM domain, GST-SBP tag (RBFOX2, Homo sapiens, UniProt O43251-10, residues 100-194)
Notes: natural RNA segment, single round, ends assumed
Construct (chain): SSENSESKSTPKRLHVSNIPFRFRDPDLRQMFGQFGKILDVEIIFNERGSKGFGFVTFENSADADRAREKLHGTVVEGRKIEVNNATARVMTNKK
`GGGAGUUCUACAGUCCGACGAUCAAGUUUUGAAAUGCUGCACUUACAUUUAAAAAAAAACAUUUUUCAACAAUUUCAACAAUGACACAAAAAUUCACAUGGAAAUGGGGAAGAUGGUCUGUUUUGACAGAAACUGGAAUUCUCGGGUGCCAA`: “RBNS enrichment (R)” 0.74.
`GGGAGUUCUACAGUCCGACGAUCAGGAGGCUCACCCAUUCUUCUGAAUAGGAACUGGGUGUUCCCACCCCCCAAGGACUGCAGGGCUUUCCCAAGCUGAGGCAGGAACGUGAGGCCAGGGAAGAGUGAGCUUCUGGAAUUCUCGGGUGCCAA` — result for “RBNS enrichment (R)”: 0.341.
`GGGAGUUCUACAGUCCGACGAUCGCCUUCCCCAAGACAAUGAGGUUUGCCUGCACCCUGGCCUGCUACCUGGACUUUGCCUGGUGCCUUCUAGGCGUCUUUCAGAGAUGGCCCAGGAGGCUUGGAGCUUGGACUGGAAUUCUCGGGUGCCAA` — result for “RBNS enrichment (R)”: 0.508.
`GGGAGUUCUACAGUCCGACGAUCAAGUGCUGGGAUUAAAGGCGUGGGCCACCACGCCCGGCUCAAAAAUACAUUUCUUAAAGUUGAAAUCAUUUGCUUCUUCCAUAAUGGGACGUUGAAACUUCUGCUUUCGGUGGAAUUCUCGGGUGCCAA`: “RBNS enrichment (R)” 0.233.
`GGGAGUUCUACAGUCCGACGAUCCGACUUUGGACAGAGUAAUGACUCCCCAGAAAACGUCAUAUAAGACUUUACCAGCCCCUGAGAGGACCAGGAGGAGCAUCCUUGACCUUCAUUUAACUUGGCUCACUUCUUGGAAUUCUCGGGUGCCAA`: “RBNS enrichment (R)” 0.384.
Under “RBNS enrichment (R)”, `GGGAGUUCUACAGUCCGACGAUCUUAAAACAUUUAAAACACAAUGUUUUAAAUGUGGACAGAACUGUGUAAACCACAUAAUUUCUGUACAUCCCAAAGGAUGAGAAGUGUGACCUUCAAGAAAAUGGAAAUAUUGGAAUUCUCGGGUGCCAA` is recorded as 0.287.
Under “RBNS enrichment (R)”, `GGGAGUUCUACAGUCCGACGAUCAGAAUUUGCAGUUUCUAACAAGGUGAAGAACAGCUAUAGGAUCUAAAGUUCCAUUACAGCUUACUGUGAAAGAAUUGACAAGACUGGCCUCAGACAAGCUAAUCAUGGUGUGGAAUUCUCGGGUGCCAA` is recorded as 0.318.
For `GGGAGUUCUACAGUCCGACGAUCCCUCCCAAAGUGUUGGGAUUACAGGCAUGAGCCACCACGCCAGCCAUUUUCUCUUUCUAAGAAGAGCAACCUCAGCCGGAGUGAGUUUUUUCUGACUUUGCAGCUGAGUCUGGAAUUCUCGGGUGCCAA`, “RBNS enrichment (R)” read 0.195.

Series 2 — technique: protein binding microarray; form: double-stranded DNA, one strand shown; sample: in vitro; concentration: not given; relative to: not given; direction: higher = stronger binding
Target: Histone acetyltransferase KAT6A, both winged helices, GST fusion (KAT6A, Homo sapiens, UniProt Q92794, residues 1-181)
Notes: 8-mer, flanks averaged, mean of 2 arrays, mostly near background
Target sequence (chain): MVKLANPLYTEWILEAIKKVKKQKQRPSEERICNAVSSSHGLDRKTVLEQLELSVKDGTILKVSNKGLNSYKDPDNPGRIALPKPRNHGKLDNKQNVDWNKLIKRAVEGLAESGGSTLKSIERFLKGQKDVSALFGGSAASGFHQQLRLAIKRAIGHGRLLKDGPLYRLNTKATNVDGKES
The E-score of `CGTGAAGC` is reported as 0.146.
With `ACCCGCAA` the E-score was 0.188.
For `ATCGACCC`, the E-score was -0.059.
`CGAGTCTA` gave an E-score of 0.0475.
With `TCAGGCAA` the E-score was -0.171.
The E-score of `TAATGGGA` is reported as -0.18.
The E-score of `ACCTGCTC` is reported as -0.109.
With `ACACCCGC` the E-score was 0.196.

Series 3 — technique: protein-binding microarray; form: double-stranded DNA, one strand shown; sample: in vitro; concentration: 0.8 µM; notes: whole 60-bp probe, no competitor; direction: higher = stronger binding
Target: Centromere-binding protein 1, full length, N-terminal tag (CBF1, Saccharomyces cerevisiae, UniProt P17106, residues 1-351)
Sequence of UniProt P17106 (whole entry, looked up): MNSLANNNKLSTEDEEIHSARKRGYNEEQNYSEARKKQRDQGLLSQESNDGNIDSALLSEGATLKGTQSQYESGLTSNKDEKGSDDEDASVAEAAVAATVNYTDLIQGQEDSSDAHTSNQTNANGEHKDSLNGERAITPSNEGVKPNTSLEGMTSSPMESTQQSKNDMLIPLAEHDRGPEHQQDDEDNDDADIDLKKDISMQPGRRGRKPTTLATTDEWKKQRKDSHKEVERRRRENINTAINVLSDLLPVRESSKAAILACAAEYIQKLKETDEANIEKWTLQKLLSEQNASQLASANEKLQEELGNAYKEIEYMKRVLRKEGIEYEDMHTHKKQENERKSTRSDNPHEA
`CTATACGACTTGAACATCAGAACGGCGATTTTCTTCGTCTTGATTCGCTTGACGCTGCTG` gave a fluorescence intensity of 597 a.u.
For `GAAATTATGACCGGTGACGAAACGTGGTCGATGTAGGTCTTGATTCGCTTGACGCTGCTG`, the fluorescence intensity was 674 a.u.
With `GAATCCAAGTCAGGACACGGGGAAAATCTTTACTAGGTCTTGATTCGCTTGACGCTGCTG` the fluorescence intensity was 729 a.u.
`GAAAGTCGGAACTATCACGTAGTTTGAAAATGTTAGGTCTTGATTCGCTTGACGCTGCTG` gave a fluorescence intensity of 604 a.u.
The fluorescence intensity of `GAAAAACAAGCGTGTCATGTGAGCTTTTTTGCCTAGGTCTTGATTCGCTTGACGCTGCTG` is reported as 2230 a.u.
`CTATTCAACTTATTTAACGTGCCCAATGGAAATTTCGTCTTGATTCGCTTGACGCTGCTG` has a fluorescence intensity of 569 a.u.
`CTAACGCCAAAGTTCCACGTTCAAATAAAACTTTTCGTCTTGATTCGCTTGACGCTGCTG` has a fluorescence intensity of 538 a.u.
With `CTAATGTCTATTGGTGACGCCTGGTCTGGATTCTTCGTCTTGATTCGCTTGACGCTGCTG` the fluorescence intensity was 520 a.u.

Further values, each from its own experiment
The remaining activity of N#CC(c1ccnc(NCCc2cccnc2)n1)c1nc2ccccc2s1 (stereo not shown) is reported as 105% (RAC-gamma serine/threonine-protein kinase (AKT3, Homo sapiens, UniProt Q9Y243); enzyme activity, inhibitor; 0.5 µM; relative to: control).

Excerpt of the above (series 3):
`GAAAGTCGGAACTATCACGTAGTTTGAAAATGTTAGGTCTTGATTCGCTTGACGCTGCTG` gave a fluorescence intensity of 604 a.u.
With `CTAATGTCTATTGGTGACGCCTGGTCTGGATTCTTCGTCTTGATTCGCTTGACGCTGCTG` the fluorescence intensity was 520 a.u.
`CTATACGACTTGAACATCAGAACGGCGATTTTCTTCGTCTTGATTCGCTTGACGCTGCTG` gave a fluorescence intensity of 597 a.u.
`CTAACGCCAAAGTTCCACGTTCAAATAAAACTTTTCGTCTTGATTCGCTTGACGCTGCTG` has a fluorescence intensity of 538 a.u.
